Measurements from different studies.
Every numbered part comes from another study and shows a few of its results, in no order. Substitutions count along the parent as printed.

Set 1
Target: Ras GTPase-activating protein-binding protein 1, full length (G3BP1, Homo sapiens, UniProt Q13283)
UniProt Q13283, sequence (whole entry, looked up): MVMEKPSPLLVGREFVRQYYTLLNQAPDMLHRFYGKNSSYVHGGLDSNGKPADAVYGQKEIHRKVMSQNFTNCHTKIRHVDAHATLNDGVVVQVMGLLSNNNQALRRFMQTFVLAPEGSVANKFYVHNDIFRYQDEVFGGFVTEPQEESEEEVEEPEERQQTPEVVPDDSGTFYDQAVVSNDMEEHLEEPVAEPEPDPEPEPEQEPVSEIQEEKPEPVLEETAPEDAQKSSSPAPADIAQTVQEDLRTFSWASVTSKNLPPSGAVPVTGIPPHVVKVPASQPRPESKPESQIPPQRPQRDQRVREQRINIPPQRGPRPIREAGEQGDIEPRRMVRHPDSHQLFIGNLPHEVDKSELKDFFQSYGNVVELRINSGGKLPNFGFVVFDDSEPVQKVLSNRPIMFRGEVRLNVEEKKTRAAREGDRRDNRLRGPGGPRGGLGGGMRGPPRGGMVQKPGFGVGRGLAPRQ
Technique: RNA Bind-n-Seq
Molecule type: RNA
Medium: in vitro
Concentration: 200 nM
Setting: whole 134-nt RNA, ends assumed
Together with: 150 mM LiCl
Reference: input library
Reading: higher = stronger binding
All molecules: 7-deaza-guanosine replaces G
All sequences stand within: GGGAGUUCUACAGUCCGACGAUC … UGGAAUUCUCGGGUGUCAAGG
| Sequence | log2 enrichment |
| --- | --- |
| AGUCCUGUGCUACACAUCGUAUGUACCGAAUCGGAAAAAAAGGUUUUUUUGGAAAGGAAAGUAUUAUGUUACGCCGUUCGGAUCUGCACU | -3.18 |
| UCCUGUGCUACACAUCGUAUGUACCGAAUCGGGGUGGGGUUUUUGGGGAAAAAAAGGGGAAAGUAUUAUGUUACGCCGUUCGGAUCUGCA | -0.882 |
| AGUCCUGUGCUACACAUCGUAUGUACCGAAUCGGGAAAAAGGGUUUUUUUGGGAGGGAAAGUAUUAUGUUACGCCGUUCGGAUCUGCACU | -1.5 |
| CACAGACAACACGCACCCACAGAGACACAGAGGGAAGGGGUUGGGAUGGGGACAGGGUGCACAGCAGGGCGGGGUAGGACCCCAGCCCCU | 0.753 |
| UCAAGUCCUGUGCUACACAUCGUAUGUACCGAAUCGGGUUUGGUUUGGGGUUUGGAAAGUAUUAUGUUACGCCGUUCGGAUCUGCACUUC | -1.19 |
| GUCCUGUGCUACACAUCGUAUGUACCGAAUCGGGCCCCCGGGCCCCCGGGCCCCCGGGAAAGUAUUAUGUUACGCCGUUCGGAUCUGCAC | -1.97 |
| UCAAGUCCUGUGCUACACAUCGUAUGUACCGAAUCGGAAAGGGAAAGGAAAGGGGAAAGUAUUAUGUUACGCCGUUCGGAUCUGCACUUC | -0.524 |
| CAAAAUACCAAGGGAUUUAUAUGAGGAUGAGUUGGUGCCCCUUUUUGAGAAGGCCGGACCCAUUUGGGAUCUACGUCUUAUGAUGGAUCC | 1.18 |
| AAGUCCUGUGCUACACAUCGUAUGUACCGAAUCGGGGAGGGGUUUUUGGGGUGGGGAAAGUAUUAUGUUACGCCGUUCGGAUCUGCACUU | 0.502 |
| ACCAUGCAGGUGGGCAUCUUUGGGAAGUGGGGCAAGGGGGGGAUAGGGAGGGGGGUCACACUUUGGGAACAGGUGGUCCCAGGUCGUUUC | 0.287 |
| GCAGGAAGUAAAAACAAAUGGAUAUGCUUCGGAUAGUGGCAGGGGUGGGGGUUGCUAAGGAAAGGGUGGGAUGGGAGUGGGUAAAGAGUU | 0.14 |

Set 2
Target: CREB3L1, bZIP domain (human)
Technique: DHFR protein complementation
Medium: yeast
Setting: single substitutions, most at no-binding floor
Reference: wild-type JUN-FOS pair
Reading: higher = stronger binding
Parent: JUN, bZIP domain (human); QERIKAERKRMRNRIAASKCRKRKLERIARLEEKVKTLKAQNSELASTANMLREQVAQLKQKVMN; partner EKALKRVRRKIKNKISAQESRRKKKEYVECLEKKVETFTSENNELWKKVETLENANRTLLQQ
| Change | binding fitness [natural log] |
| --- | --- |
| L52I | -1.47 |
| L52Q | -1.48 |
| V56G | -1.49 |
| A49E | -1.44 |
| A49Y | -1.44 |
| M51A | -1.34 |
| V56T | -1.31 |
| R53A | -1.38 |
| S47Y | -1.3 |
| Q55R | -1.47 |
| A46K | -1.25 |
| R53T | -1.43 |
| M51D | -1.25 |
| L38W | -1.51 |
| L31H | -1.31 |
| L31V | -1.46 |
| A40Q | -1.31 |
| L38C | -1.43 |
| T37R | -1.42 |
| E33A | -1.27 |
| L38F | -1.44 |
| Q41I | -1.46 |
| L38D | -1.18 |
| L45C | -1.44 |
| A29D | -1.33 |

Set 3
Target: Microphthalmia-associated transcription factor, full length (MITF, Homo sapiens, UniProt O75030-10, residues 1-413)
Technique: protein-binding microarray
Molecule type: double-stranded DNA, one strand shown
Medium: in vitro
Concentration: not given
Setting: k-mer, scored over probes, only values ≥0.25
Reading: higher = stronger binding
Construct (chain): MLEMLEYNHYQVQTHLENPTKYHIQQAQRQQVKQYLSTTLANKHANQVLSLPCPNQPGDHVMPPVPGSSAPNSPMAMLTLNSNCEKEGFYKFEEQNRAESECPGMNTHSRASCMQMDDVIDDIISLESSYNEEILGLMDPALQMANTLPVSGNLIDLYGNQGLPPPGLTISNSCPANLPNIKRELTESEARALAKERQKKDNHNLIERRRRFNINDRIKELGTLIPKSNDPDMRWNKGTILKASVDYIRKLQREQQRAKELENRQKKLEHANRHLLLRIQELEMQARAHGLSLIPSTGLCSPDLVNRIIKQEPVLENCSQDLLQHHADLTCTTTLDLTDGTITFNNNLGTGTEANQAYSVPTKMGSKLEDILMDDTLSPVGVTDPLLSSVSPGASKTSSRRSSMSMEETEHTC
| Sequence | E-score |
| --- | --- |
| CGCATGA | 0.423 |
| CGTGACA | 0.459 |
| TCACGCA | 0.366 |
| ATCACAC | 0.317 |
| GGTCACA | 0.374 |
| ACGTGCG | 0.388 |
| GTGATCA | 0.313 |
| CTCACGC | 0.301 |
| ACACGTG | 0.485 |
| CCCGCCC | 0.271 |
| CGCGTGA | 0.478 |
| CGTGTTC | 0.254 |
| CACATGG | 0.41 |
| ACCTGAC | 0.259 |
| CGTGACC | 0.474 |
| ACGTGGG | 0.312 |
| CACACGC | 0.296 |
| ACGTGTG | 0.388 |
| CATGGGA | 0.326 |
| TCATGCA | 0.342 |
| AATCATG | 0.301 |
| CTTGTGA | 0.426 |
| GTCACAA | 0.362 |
| CATCACG | 0.423 |
| CATGCGG | 0.324 |

Set 4
Target: ABI1, truncated, D143A, DHFR fusion (Arabidopsis thaliana)
Technique: DHFR PCA, deep sequencing
Medium: yeast
Setting: methotrexate growth selection, single substitutions
Together with: (+)-ABA 58 µM
Reference: wild-type fitted maximum
Reading: higher = stronger binding
Parent: PYL1, truncated, DHFR fusion (Arabidopsis thaliana); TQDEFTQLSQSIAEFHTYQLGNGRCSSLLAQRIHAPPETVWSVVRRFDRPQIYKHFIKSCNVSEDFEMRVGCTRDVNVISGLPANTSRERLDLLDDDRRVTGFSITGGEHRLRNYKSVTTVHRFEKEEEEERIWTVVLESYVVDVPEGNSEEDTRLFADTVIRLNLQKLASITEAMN
| Change | relative binding score [%] |
| --- | --- |
| S42C | 79.6 |
| K126N | 96.1 |
| Y115E | -4.25 |
| I79Q | 90.6 |
| S9C | 73.4 |
| E14M | 70.2 |
| K168N | 92.6 |
| T1P | 91.2 |
| V145Q | 42.8 |
| R163A | 66.3 |
| V143M | 62.7 |
| W134E | 99 |
| H55V | 93.8 |
| Q19G | 87.5 |
| I52Q | 85.9 |
| V43P | -14.8 |
| R111P | 16.4 |
| S117T | 5.7 |
| S80P | 20 |
| D96F | 18.4 |
| L93W | 69.6 |
| K168V | 71.4 |
| S117V | -13.4 |

Set 5
Target: CCND2, cyclin fold, Cln2 fusion (human)
Technique: yeast growth competition, sequencing
Medium: yeast
Setting: weak parent motif
Reference: not given
Reading: higher = stronger binding
Parent: MASTL docking peptide (human); PMIAKNLMCELDE
| Change | normalised enrichment score |
| --- | --- |
| M8E | 0.204 |
| L7K | 0.444 |
| I3Y | 0.295 |
| M8C | -0.222 |
| L7P | -0.139 |
| D12G | 0.211 |
| I3V | 0.102 |
| I3M | -0.0777 |
| M8Q | 0.133 |
| L11W | 0.217 |
| L7Q | -0.13 |
| D12S | 0.195 |
| K5S | -0.136 |
| M8N | -0.125 |
| M8P | 0.212 |
| E10Y | 0.332 |
| N6G | 0.133 |
| E10D | 0.136 |
| M2W | -0.0209 |
| C9Q | 0.0328 |
| L11Q | 0.233 |
| I3S | -0.2 |
| M2R | 0.143 |
| A4L | -0.22 |
| L7F | -0.163 |

Mixed results
| Molecule | target | assay | test system | setting | how to read | quantity | result |
| --- | --- | --- | --- | --- | --- | --- | --- |
| PhoQ, residues 284 288 289 292 302 303 SIHMAM | PhoP, residues 12 14 15 18 19 SMASL (Escherichia coli, UniProt P23836) | Sort-seq, refers to: YFP reporter | E. coli | PhoQ-PhoP variant library, together with: 10 µM Mg2+ | reference: high Mg2+ state, higher = stronger signaling | fold induction | 8.36 |

A few entries again (set 4):
| Change | relative binding score [%] |
| --- | --- |
| K168N | 92.6 |
| T1P | 91.2 |
| V145Q | 42.8 |
| R163A | 66.3 |
| V143M | 62.7 |
| W134E | 99 |
| H55V | 93.8 |
| Q19G | 87.5 |
